Measured values of several laboratories.
Compare with care: the assays were run in different laboratories. ± gives the spread as reported.

SMILES | cell line | assay | system | conditions | scale | measurement | value
CC(=O)N[C@@H](CCCCN)C(=O)N[C@@H](CCCCN)C(=O)N[C@@H](CC(C)C)C(=O)N[C@@H](CC(C)C)C(=O)N[C@@H](CCCCN)C(=O)N[C@@H](CC(C)C)C(=O)N[C@@H](CC(C)C)C(=O)N[C@@H](CCCCN)C(=O)N[C@@H](CCCCN)C(=O)N1CCC[C@H]1C(=O)N[C@@H](CC(C)C)C(=O)N[C@@H](CCCCN)C(=O)N[C@@H](C)C(=O)N[C@@H](CC(C)C)C(=O)N[C@@H](CCCCN)C(N)=O | human red blood cells | haemolysis | – | 6 h, 37 °C, 5% haematocrit in PBS | – | MHC10 | > 160 µM
Cc1ccc(OCCc2cccc(F)c2)c(C(N)=O)c1 | HepG2 | – | – | 3 (unit not given) | baseline: CC50 glucose over CC50 galactose | selectivity ratio | < 1
CN(C(=O)n1cnc(-c2ccc[n+]([O-])c2)c1)C1CCCCC1 | COS-7 expressing human FAAH | – | culture supernatant | 100 nM, 1 h | – | concentration | 100.5 ± 1 nM
Cc1ccc(OCCc2ccc(Br)cc2)c(C(N)=O)c1 | HepG2 | – | – | 3 (unit not given) | baseline: CC50 glucose over CC50 galactose | selectivity ratio | ~3
CC[C@H](C)[C@H](NC(=O)[C@H](CC(=O)O)NC(=O)[C@@H](NC(=O)[C@H](CC(N)=O)NC(=O)[C@@H]1CCCN1C(=O)[C@@H](NC(=O)[C@@H](N)Cc1ccccc1)[C@@H](C)O)[C@@H](C)O)C(=O)N[C@H](C(=O)N[C@H](C(=O)N[C@@H](CCCNC(=N)N)C(=O)N[C@H](C(=O)N[C@H](C(=O)NCC(=O)NCC(=O)NCC(=O)N[C@@H](CC(C)C)C(=O)N[C@@H](CCCCN)C(=O)N[C@@H](CCCCN)C(=O)N[C@@H](CC(C)C)C(=O)N[C@@H](CC(C)C)C(=O)N[C@@H](CC(C)C)C(=O)N[C@@H](CC(C)C)C(=O)N[C@@H](CC(C)C)C(=O)N[C@@H](CCCCN)C(=O)N[C@@H](CCCCN)C(=O)N[C@@H](CC(C)C)C(=O)NCC(=O)O)[C@@H](C)O)[C@@H](C)O)[C@@H](C)O)[C@@H](C)CC | human red blood cells | – | – | 1 h, 37 °C, 10% hemolysis | – | lowest hemolytic concentration | > 256 µg/mL
CC(C)c1ccc(NC(=O)N(C)C)cc1 | rat hepatoma cells | cell viability | – | 24 h, freely dissolved concentration | – | IC10 | 177 µM
CC(=O)c1ccc2c(c1)N(CCCN(C)C)c1ccccc1S2 | African green monkey cells | – | – | 5 days | – | CC50 | 22.4 µM
Cc1cc(C(C)(C)c2ccc(O)c(C)c2)ccc1O | HepG2 spheroids, dissociated | annexin V-FITC/PI flow cytometry | – | 10 µM, 96 h | – | early apoptotic cells | 8.28 ± 9.2%
CC(C)C[C@H](NC(=O)[C@H](CCCCN)NC(=O)[C@H](CCCCN)NC(=O)[C@H](CC(C)C)NC(=O)[C@H](CC(C)C)NC(=O)[C@H](CC(C)C)NC(=O)[C@H](CC(C)C)NC(=O)[C@H](CC(C)C)NC(=O)[C@H](CCCCN)NC(=O)[C@H](CCCCN)NC(=O)[C@@H](N)CC(C)C)C(=O)NCC(=O)NCC(=O)NCC(=O)N[C@@H](Cc1c[nH]c2ccccc12)C(=O)N[C@@H](CCCCN)C(=O)N[C@H](C(=O)N[C@@H](CC(N)=O)C(=O)N[C@@H](CCCCN)C(=O)N[C@@H](Cc1ccc(O)cc1)C(=O)NCC(=O)N[C@H](C(=O)N[C@@H](CC(C)C)C(=O)N[C@@H](Cc1ccc(O)cc1)C(=O)O)[C@@H](C)O)[C@@H](C)O | HEK-293T cells | CCK-8 | – | 4 h, 37 °C, 10% cell death | – | lowest cytotoxic concentration | 64 µg/mL
O=C(CCCN1CCC2(CC1)C(=O)NCN2c1ccccc1)c1ccc(F)cc1 | African green monkey cells | – | – | 5 days | – | CC50 | 81.3 µM
CC(C)C[C@H](NC(=O)CNC(=O)[C@H](CC(C)C)NC(=O)[C@H](CC(C)C)NC(=O)[C@H](CC(C)C)NC(=O)[C@H](CCCCN)NC(=O)[C@@H](N)CCCCN)C(=O)NCC(=O)N[C@@H](CC(C)C)C(=O)N[C@@H](CC(C)C)C(=O)N[C@@H](CC(C)C)C(=O)N[C@@H](CCCCN)C(=O)N[C@@H](CCCCN)C(=O)O | HEK-293T cells | CCK-8 | – | 4 h, 37 °C, 10% cell death | – | lowest cytotoxic concentration | 256 µg/mL
N#C[C@@]1(n2ccc(N)nc2=O)O[C@H](CO)[C@@H](O)[C@H]1O | CHO | – | – | 16 µM, without S9 | – | micronucleated cells | 0.19%
CC(C)Cn1cnc2c(N)nc3ccccc3c21 | HFF-1 | – | – | 10 µg/mL, 48 h | – | viability | 78.3%
CN1CCC(=C2c3ccccc3Oc3ccc(Cl)cc32)CC1 | African green monkey cells | – | – | 5 days | – | CC50 | 15 µM
O=S(=O)(c1ccc(O)cc1)c1ccc(O)cc1 | HepG2 spheroids, dissociated | annexin V-FITC/PI flow cytometry | – | 10 µM, 96 h | – | viable cells | 40.2 ± 13.7%
CNC1CC(c2ccc(Cl)c(Cl)c2)c2ccccc21 (centres unmarked) | African green monkey cells | – | – | 5 days | – | CC50 | 8.51 µM
CCCC(=O)N[C@@H](CCCCN)C(=O)N[C@@H](CCCCN)C(=O)N[C@@H](C)C(=O)N[C@@H](CC(C)C)C(=O)N[C@@H](CCCCN)C(=O)N[C@@H](CC(C)C)C(=O)N[C@@H](C)C(=O)N[C@@H](CCCCN)C(=O)N[C@@H](CCCCN)C(=O)N1CCC[C@H]1C(=O)N[C@@H](CC(C)C)C(=O)N[C@@H](CCCCN)C(=O)N[C@@H](CC(C)C)C(=O)N[C@@H](CC(C)C)C(=O)N[C@@H](CCCCN)C(N)=O | human red blood cells | haemolysis | – | 6 h, 37 °C, 5% haematocrit in PBS | – | MHC10 | > 160 µM
CN(CCC(Oc1ccc(C(F)(F)F)cc1)c1ccccc1)N=O (centres unmarked) | TK6 expressing CYP2C19 | – | – | 0.015 µM, 4 h, without S9 | baseline: vehicle | relative survival | 90.4%
Nc1nc2c(ncn2[C@@H]2O[C@@H]3COP(=O)(O)O[C@H]4[C@@H](O)[C@H](n5cnc6c(N)ncnc65)O[C@@H]4COP(=O)(O)O[C@H]3[C@H]2O)c(=O)[nH]1 | HFF-1 | – | – | 0.1 µg/mL | – | viability | 96.4%
CC(C)C[C@H](NC(=O)CNC(=O)CNC(=O)CNC(=O)[C@H](CC(N)=O)NC(=O)[C@@H](NC(=O)[C@@H]1CCCN1C(=O)[C@H](C)NC(=O)[C@@H]1CCCN1C(=O)[C@H](C)NC(=O)[C@H](Cc1ccc(O)cc1)NC(=O)[C@@H]1CCCN1C(=O)[C@H](C)NC(=O)[C@H](CC(C)C)NC(=O)[C@H](CO)NC(=O)[C@@H](N)Cc1ccccc1)C(C)C)C(=O)N[C@@H](CCCCN)C(=O)N[C@@H](CCCCN)C(=O)N[C@@H](CC(C)C)C(=O)N[C@@H](CC(C)C)C(=O)N[C@@H](CC(C)C)C(=O)N[C@@H](CC(C)C)C(=O)N[C@@H](CC(C)C)C(=O)N[C@@H](CCCCN)C(=O)N[C@@H](CCCCN)C(=O)N[C@@H](CC(C)C)C(=O)NCC(=O)O | HEK-293T cells | CCK-8 | – | 4 h, 37 °C, 10% cell death | – | lowest cytotoxic concentration | 256 µg/mL
Nc1nc2c(ncn2[C@@H]2O[C@@H]3COP(=O)(O)O[C@H]4[C@@H](O)[C@H](n5cnc6c(N)ncnc65)O[C@@H]4COP(=O)(O)O[C@@H]2[C@@H]3O)c(=O)[nH]1 | HFF-1 | – | – | 1 µg/mL | – | viability | 96.9%
CC(=O)c1cc(-c2ccoc2)ccc1OCCc1cccc(F)c1 | HepG2 | – | – | 3 (unit not given) | baseline: CC50 glucose over CC50 galactose | selectivity ratio | 2
CC[C@H](C)[C@H](NC(=O)CN)C(=O)NCC(=O)N[C@@H](C)C(=O)N[C@H](C(=O)N[C@@H](CC(C)C)C(=O)N[C@@H](CCCCN)C(=O)N[C@H](C(=O)N[C@@H](CC(C)C)C(=O)N[C@H](C(=O)N[C@H](C(=O)NCC(=O)N[C@@H](CC(C)C)C(=O)N1CCC[C@H]1C(=O)N[C@@H](C)C(=O)N[C@@H](CC(C)C)C(=O)N[C@H](C(=O)N[C@@H](CO)C(=O)N[C@@H](Cc1c[nH]c2ccccc12)C(=O)N[C@H](C(=O)N[C@@H](CCCCN)C(=O)N[C@@H](CCCNC(=N)N)C(=O)N[C@@H](CCCCN)C(=O)N[C@@H](CCCNC(=N)N)C(=O)N[C@@H](CCC(N)=O)C(=O)N[C@@H](CCC(N)=O)C(N)=O)[C@@H](C)CC)[C@@H](C)CC)[C@@H](C)O)[C@@H](C)O)C(C)C)C(C)C | RAW264.7 | – | – | 4 µM | – | cell death | > 50%
CC[C@H](C)[C@H](NC(=O)[C@H](CCCCN)NC(=O)[C@H](CCCNC(=N)N)NC(=O)[C@H](CCC(N)=O)NC(=O)[C@H](CCCNC(=N)N)NC(=O)CNC(=O)[C@H](Cc1ccccc1)NC(=O)[C@H](CCCNC(=N)N)NC(=O)[C@H](CCCNC(=N)N)NC(=O)[C@H](Cc1ccccc1)NC(=O)[C@H](CC(C)C)NC(=O)[C@@H]1CCCN1C(=O)[C@@H](NC(=O)[C@H](CC(N)=O)NC(=O)[C@@H](NC(=O)[C@@H](NC(=O)[C@H](CO)NC(=O)[C@H](CC(N)=O)NC(=O)[C@H](CCCNC(=N)N)NC(=O)[C@@H]1CCCN1C(=O)[C@@H](NC(=O)[C@@H]1CCCN1C(=O)[C@@H](N)Cc1ccccc1)[C@@H](C)CC)[C@@H](C)O)C(C)C)[C@@H](C)CC)C(=O)NCC(=O)NCC(=O)N[C@@H](CCCNC(=N)N)C(=O)NCC(=O)N[C@@H](CCCNC(=N)N)C(=O)N[C@H](C(=O)N[C@H](C(=O)N[C@@H](CO)C(=O)N1CCC[C@H]1C(=O)N[C@@H](Cc1ccc(O)cc1)C(=O)N[C@@H](CCCNC(=N)N)C(=O)N[C@H](C(=O)N1CCC[C@H]1C(=O)N[C@H](C(=O)N[C@@H](CC(C)C)C(=O)N[C@@H](CCCNC(=N)N)C(=O)N[C@@H](CCCNC(=N)N)C(=O)N[C@@H](Cc1c[nH]cn1)C(=O)N[C@@H](CCCNC(=N)N)C(=O)N[C@@H](Cc1ccc(O)cc1)C(=O)N[C@@H](CO)C(=O)N[C@H](C(=O)N[C@@H](Cc1ccccc1)C(=O)N[C@@H](CCCNC(=N)N)C(=O)O)[C@@H](C)CC)C(C)C)[C@@H](C)O)[C@@H](C)CC)[C@@H](C)CC | human red blood cells | hemolysis | – | – | – | HC50 | 303 µmol/L
Cc1cc2nc3c(=O)[nH]c(=O)nc-3n(C[C@H](O)[C@H](O)[C@H](O)CO)c2cc1C | African green monkey cells | – | – | 5 days | – | CC50 | > 50.1 µM
O=c1ccc2ccccc2o1 | NHEK | cell count | – | concentration not given, 6 h, AhR translocation panel | – | chance response | 0.03%
Nc1ncnc2c1ncn2[C@@H]1O[C@@H]2COP(=O)(O)O[C@H]3[C@@H](O)[C@H](n4cnc5c(N)ncnc54)O[C@@H]3COP(=O)(O)O[C@H]2[C@H]1O | HFF-1 | – | – | 1 µg/mL | – | viability | 89.7%
Oc1ccc(C(c2ccc(O)cc2)(C(F)(F)F)C(F)(F)F)cc1 | HepG2 spheroids, dissociated | annexin V-FITC/PI flow cytometry | – | 40 µM, 24 h | – | late apoptotic cells | 9.91 ± 4.56%
Nc1nc2nn[nH]c2c(=O)[nH]1 | African green monkey cells | – | – | 5 days | – | CC50 | 23.7 µM

Some of these lines once more:
SMILES | cell line | assay | system | conditions | scale | measurement | value
Nc1ncnc2c1ncn2[C@@H]1O[C@@H]2COP(=O)(O)O[C@H]3[C@@H](O)[C@H](n4cnc5c(N)ncnc54)O[C@@H]3COP(=O)(O)O[C@H]2[C@H]1O | HFF-1 | – | – | 1 µg/mL | – | viability | 89.7%
Oc1ccc(C(c2ccc(O)cc2)(C(F)(F)F)C(F)(F)F)cc1 | HepG2 spheroids, dissociated | annexin V-FITC/PI flow cytometry | – | 40 µM, 24 h | – | late apoptotic cells | 9.91 ± 4.56%
